Experimental data from different studies.
Each line is one published result; not all experiments were run side by side. ± marks the error that the study gave.

C=CC(=O)Nc1cc(Nc2nccc(-c3cn(C4CC4)c4ccccc34)n2)c(OC)cc1N(C)CCNC
CL/F (healthy Chinese male human, plasma; oral, 110 mg almonertinib, metabolite, [14C] single dose): 99.1 ± 8.92 L/h

CNC(=O)N[C@]1(C)CCC[C@@]2(C)C3CC[C@@]4(C)C[C@]3(CCC21)CC4=O (single isomer, unassigned)
relative error (processed rat plasma; 400 ng/mL, 24 h, 4 °C, autosampler stability; reference: nominal concentration): 11.1%

CC(C)[C@H](NC(=O)[C@@H]1CCCN1C(=O)[C@H](CCCNC(=N)N)NC(=O)[C@H](CS)NC(=O)[C@H](Cc1c[nH]c2ccccc12)NC(=O)[C@H](CCCNC(=N)N)NC(=O)[C@@H](Cc1ccccc1)NC(=O)[C@H](Cc1c[nH]cn1)NC(=O)[C@H](CCC(=O)O)NC(=O)[C@H](CS)NC(=O)[C@H](CS)NC(=O)[C@@H]1CC(=O)N[C@@H](CCCNC(=N)N)C(=O)NCC(=O)N[C@@H](CC(=O)O)C(=O)N[C@H](Cc2ccc(O)cc2)C(=O)N1)C(N)=O [technetium-99m labelled]
tumour-to-tissue ratio (C57 mice B16/F1 melanoma female; iv, 2 h, added: NDP-MSH blockade; reference: tumour over liver): 2.11

Oc1cccc(-c2cccc(O)n2)n1.[Cl-].[Cl-].[Ru+2].c1cnc2c(c1)c1c(c3cccnc32)OCCO1.c1cnc2c(c1)c1c(c3cccnc32)OCCO1
logP of basic form (shake flask; octanol/buffer): 2

CC(=O)N[C@H](CSSC[C@H](N)C(=O)O)C(=O)N[C@H](C)C(=O)N[C@H](CCCNC(=N)N)C(=O)N[C@H](CCCNC(=N)N)C(=O)N[C@H](CCCNC(=N)N)C(=O)N[C@H](C)C(=O)N[C@H](CCCNC(=N)N)C(N)=O
AUC(0-inf) (male human, plasma; intravenous, 2 mg, single dose, healthy volunteers): 293 ng·h/mL

CCCC[C@@H]1NC(=O)[C@@H](NC(=O)[C@H](CCC(=O)O)NC(=O)CNC(=O)CN2CCN(CC(=O)O)CCN(CC(=O)O)CCN(CC(=O)O)CC2)CCCCNC(=O)C[C@@H](C(N)=O)NC(=O)[C@H](C(C)C)NC(=O)[C@@H]2CCCN2C(=O)[C@H](CCCNC(=N)N)NC(=O)CNC(=O)[C@H](Cc2c[nH]c3ccccc23)NC(=O)[C@H](CCCNC(=N)N)NC(=O)[C@@H](Cc2ccccc2)NC(=O)[C@H](Cc2c[nH]cn2)NC(=O)[C@H](CCC(=O)O)NC1=O [gallium-67 labelled]
urine excretion (normal C57 mice; intravenous, 0.037 MBq, 4 h): 88.2 ± 1.22%

CC(O)c1cc(Cl)ccc1Cn1c(=S)[nH]c(=O)c2[nH]ccc21 (centres unmarked)
exposure ratio (Sprague-Dawley rat, male, plasma; oral, 125 mg/kg/day; reference: rat over human 10 mg): 5.3

CCCC[C@H](NC(=O)CNC(=O)CNC(=O)CN1CCN(CC(=O)O)CCN(CC(=O)O)CC1)C(=O)N[C@H]1CC(=O)NCCCC[C@@H](C(N)=O)NC(=O)[C@H](Cc2c[nH]c3ccccc23)NC(=O)[C@H](CCCNC(=N)N)NC(=O)[C@@H](Cc2ccccc2)NC(=O)[C@H](Cc2c[nH]cn2)NC1=O [copper-64 labelled]
uptake ratio (female C57 mouse, B16/F1 melanoma; intravenous, 0.037 MBq, 24 h; reference: tumour over stomach): 19.3

Cc1nc(N(C)C)ccc1N
relative fluorescence intensity (phosphate buffer with BSA; pH 8, 37 °C, 1% DMSO): 3400 RFU/nmol

CC[C@H](C)[C@H](NC(=O)[C@H](C)NC(=O)CNC(=O)[C@H](Cc1ccccc1)NC(=O)[C@H](CC(N)=O)NC(=O)[C@H](CC(N)=O)NC(=O)[C@H](CO)NC(=O)[C@H](CO)NC(=O)[C@H](Cc1c[nH]cn1)NC(=O)[C@@H](NC(=O)[C@H](CC(C)C)NC(=O)[C@H](Cc1ccccc1)NC(=O)[C@H](CC(N)=O)NC(=O)[C@H](C)NC(=O)[C@H](CC(C)C)NC(=O)[C@H](CCCNC(=N)N)NC(=O)[C@H](CCC(N)=O)NC(=O)[C@@H](NC(=O)[C@H](C)NC(=O)[C@@H]1CSSC[C@H](NC(=O)[C@@H](N)CCCCN)C(=O)N[C@@H](CC(N)=O)C(=O)N[C@@H]([C@@H](C)O)C(=O)N[C@@H](C)C(=O)N[C@@H]([C@@H](C)O)C(=O)N1)[C@@H](C)O)C(C)C)C(=O)N[C@@H](CC(C)C)C(=O)N1CCC[C@H]1C(=O)N1CCC[C@H]1C(=O)N[C@H](C(=O)N[C@@H](CC(N)=O)C(=O)N[C@H](C(=O)NCC(=O)N[C@@H](CO)C(=O)N[C@@H](CC(N)=O)C(=O)N[C@H](C(=O)N[C@@H](Cc1ccc(O)cc1)C(N)=O)[C@@H](C)O)C(C)C)[C@@H](C)O
collision cross section (ion mobility mass spectrometry; ammonium acetate; pH 7.5, monomer ion charge +2): 553 ± 5.9 Å²

COc1cccc(C=NCCCN(C)CCN(C)CCCN=Cc2cccc(OC)c2[O-])c1[O-].[67Ga+3]
uptake (male rat, heart; iv, 1 min): 2 %ID/organ

C#CC(C)NC(=O)C(CC(C)(C)F)NC(c1ccc(-c2ccc(S(C)(=O)=O)cc2)cc1)C(F)(F)F (centres unmarked)
cysteine adduct formation (LC-MS UV trace; aqueous buffer; concentration not given, 23 h, pH 5.5, 37 °C, added: cysteine 10 mM): < 1%

CC(NC(=O)OC1OC(C(=O)O)C(O)C(O)C1O)c1cc(Cl)ccc1Cn1c(=S)[nH]c(=O)c2[nH]ccc21 (centres unmarked)
exposure ratio (Sprague-Dawley rat, both sexes, plasma; oral, 125 mg/kg/day; reference: rat over human clinical doses): ≥ 1.4

O=C(CCCCC[N+]#[C][99Tc-5]([C]#[N+]CCCCCC(=O)N[C@H]1C(O)O[C@H](CO)[C@@H](O)[C@@H]1O)([C]#[N+]CCCCCC(=O)N[C@H]1C(O)O[C@H](CO)[C@@H](O)[C@@H]1O)([C]#[N+]CCCCCC(=O)N[C@H]1C(O)O[C@H](CO)[C@@H](O)[C@@H]1O)([C]#[N+]CCCCCC(=O)N[C@H]1C(O)O[C@H](CO)[C@@H](O)[C@@H]1O)[C]#[N+]CCCCCC(=O)N[C@H]1C(O)O[C@H](CO)[C@@H](O)[C@@H]1O)N[C@H]1C(O)O[C@H](CO)[C@@H](O)[C@@H]1O (some centres unmarked)
tumour/muscle ratio (biodistribution; BALB/c nude mouse U87 MG xenograft; 2 h; reference: tumour over muscle): 4.02 ± 0.42

COc1ccc(Nc2nc(Nc3ccc(OCCOCC[18F])cc3)ncc2Br)cc1
uptake ratio (ICR mice, S180 tumour; intravenous, 370 kBq, 15 min; reference: tumour over muscle): 2.4

C[C@H](NC(=O)COC(=O)[C@H](C)NC(=O)CO)C(=O)O
depolymerization half-life (water; pH 6, 50 °C): 45.6 min

COC(=O)c1ccc(-c2cn(Cc3cc(Cl)ccc3O[11CH3])nn2)cc1
maximum brain uptake (PET/CT; C57BL/6 mouse, brain): 2.7 %ID/cc

O=C(CCc1ccc(CNC(C(=O)OC2CCCC2)C2CCCCC2)cn1)NO (centres unmarked)
CL/F (human; 50 mg, single dose, geometric mean): 264 L/h

COC(=O)c1ccc2c(c1)NC(=O)/C2=C(\Nc1ccc2c(c1)CCN2C(=O)CN1CCOCC1)c1ccccc1
blood clearance (beagle dog; intravenous, 2 mg/kg; reference: liver blood flow): ~100%

COCCN(CC(N)=O)C(=O)CN(CCOC)C(=O)CN(CCOC)C(=O)CN(CCOC)C(=O)CN(CCOC)C(=O)CN(CCOC)C(=O)CN(CCC(=O)O)C(=O)CN(CCCCN)C(=O)CN(CCOC)C(=O)CN(CCOC)C(=O)CN(CCOC)C(=O)CN(CCOC)C(=O)CN(CCOC)C(=O)CN(CCOC)C(=O)C(Cc1ccccc1)NC(C)=O (centres unmarked)
pKa of NH2 group (potentiometric titration with KOH; 100 x 1 mM KCl): 10.2

CC(C)(O)c1ncc([S@](N)(=O)=NC(=O)Nc2c3c(cc4c2CCC4)CCC3)s1
Tmax (healthy humans; oral, up to 10 mg, suspension, median range): 45.6 to 60 min

COCC1CN(C2CCN(c3cc(OC)c(Nc4ncc(Br)c(Nc5ccc6c(c5P(C)(C)=O)OCCO6)n4)cc3C)CC2)C1
patients with treatment-related adverse events (human; oral, dose not given, sample A patients): 81.5%

O=C([O-])CN1CCN(CC(=O)[O-])CCN(CC(=O)NC[C@H]2CC[C@H](C(=O)N[C@H](Cc3cnc4ccccc4c3)C(=O)NCCCC[C@H](NC(=O)N[C@@H](CCC(=O)O)C(=O)O)C(=O)O)CC2)CCN(CC(=O)[O-])CC1.[64Cu+2]
absorbed dose (PET/CT dosimetry OLINDA/EXM; healthy volunteers, salivary glands; up to 24 h post-injection): 0.142 mGy/MBq

Cc1ccc(OCC(=O)N(Cc2cccs2)c2ccn[nH]2)cc1
AUC(0-t) (female Sprague-Dawley rat, plasma; intravenous, 1 mg/kg, single dose): 299 ng·h/mL

CC(=O)c1cnc(N)nc1N1CC[C@H]1c1nn2ccc(Cl)c2c(=O)n1-c1ccccc1
AUC (rat Wistar female collagen-induced arthritis, plasma; oral, 0.1 mg/kg twice daily): 684 ± 78 ng·h/mL

COc1cc2c(cc1OC)CN(CCCCn1ccc3cc(OCC[18F])ccc31)C2
tracer uptake (male CD-1 mouse, pancreas; intravenous, 280 kBq, 30 min): 34.1 %ID/g

Cc1ccc(/N=N/c2c(O)ccc3ccccc23)c(C)c1
measured concentration (extracted rat blood QC samples; 5.0 µg/L, 2 h, room temperature, short-term stability): 4.91 µg/L

Cn1c(=O)oc2ccc(-c3ccc(CC(C#N)NC(=O)C4CNCCCO4)c(F)c3)cc21 (centres unmarked)
treatment-related adverse event incidence (item: mouth ulceration; human volunteers; oral, dose not given): 3.7%

CC(C)c1cnc(-c2cc(Cl)ccc2F)cc1Nc1ccncc1C(=O)NC(CO)CO
patients with anaemia (patients, phase I monotherapy; oral, dose not given, grade 4): 0%

OC1(C(F)(F)F)CCN(c2nc(Nc3ccnc(C(F)(F)F)c3)nc(-c3cccc(C(F)(F)F)n3)n2)C1 (centres unmarked)
bioavailability (Sprague-Dawley rat, plasma; oral, 10 mg/kg): 142%

CC(C)[C@H](NC(=O)CNC(=O)[C@H](CCC(N)=O)NC(=O)[C@H](C)N)C(=O)O
Cmax (male human, plasma; intravenous, 1 mg/kg, single dose): 27 ng/mL

NC[C@@H](C(=O)Nc1ccc(-c2cn[nH]c2)cc1)c1ccccc1
cornea score (OECD 405 eye irritation; New Zealand White rabbit, eye; topical, 0.1%, 8 h (day 1), scale 0 to 4; direction not given): 0

Nc1nc(-n2nnc3c2CCC2C(CO)C2CC3)nc2c1ncn2C1OC(CO)C(O)C1O (mixture of isomers)
average fluorescence lifetime (frequency-domain fluorometry; methanol): 0.8 ns

N#Cc1cnc2cc(OCC3CCNCC3)c(F)cc2c1Nc1cc(F)c(OCc2cccc(Cl)n2)cc1Cl
bioavailability (male Sprague-Dawley rat, plasma; oral, 100 mg/kg): 12%

C[C@H](CN(C)Cc1ccccc1)NC(=O)c1ccc(-c2noc(C(F)(F)[18F])n2)cc1
brain-to-heart ratio (PET; Sprague-Dawley rat, female, brain and heart; intravenous, 1 min; reference: brain SUV over heart SUV): 0.8 ± 1.62

O=C(O)C1CN(Cc2ccc(-c3noc(-c4ccc(OCC[18F])c(C(F)(F)F)c4)n3)cc2)C1
tracer uptake (rat, heart; intravenous, 1 h): 0.379 %ID/g

CCCCC/C=C/C=C/C(=O)NCC(C)C
relative error (rat plasma; 15 ng/mL, three freeze-thaw cycles low QC; reference: nominal concentration): -2.67%

Cc1ccc(-c2ccc(-c3cc4sccc4o3)cn2)nc1
fluorescence quantum yield (aqueous HEPES buffer; pH 7.4, added: quinine bisulfate reference): 0.54

CCOc1ccc2c(c1)C(C)=CC(C)(C)N2c1cc(OCC)cc2c1NC(C)(C)C=C2C
effective dose (increased liver weight, hepatosomatic index; male BALB/c mice; oral, diet, 90 days): ≥ 99 mg/kg bw/day

Cc1c(Cl)c(C)[n+]([O-])c(Cl)c1-c1no[14c](-c2cc(O)c(O)c([N+](=O)[O-])c2)n1
total radioactivity recovered (human, male, urine, faeces, expired air; oral, 100 mg, 144 h; reference: dose): > 90%

C[C@]12C[C@H](c3ccc(C(=O)O)cc3)C3=C4CCC(=O)C=C4CC[C@H]3[C@@H]1CC[C@@]2(O)C(F)(F)C(F)(F)F
maximal oral bioavailability (human liver microsomes; 100 % absorption assumed): 98%

Repeated from above:
CC(O)c1cc(Cl)ccc1Cn1c(=S)[nH]c(=O)c2[nH]ccc21 (centres unmarked)
exposure ratio (Sprague-Dawley rat, male, plasma; oral, 125 mg/kg/day; reference: rat over human 10 mg): 5.3

CCCC[C@H](NC(=O)CNC(=O)CNC(=O)CN1CCN(CC(=O)O)CCN(CC(=O)O)CC1)C(=O)N[C@H]1CC(=O)NCCCC[C@@H](C(N)=O)NC(=O)[C@H](Cc2c[nH]c3ccccc23)NC(=O)[C@H](CCCNC(=N)N)NC(=O)[C@@H](Cc2ccccc2)NC(=O)[C@H](Cc2c[nH]cn2)NC1=O [copper-64 labelled]
uptake ratio (female C57 mouse, B16/F1 melanoma; intravenous, 0.037 MBq, 24 h; reference: tumour over stomach): 19.3

CNC(=O)N[C@]1(C)CCC[C@@]2(C)C3CC[C@@]4(C)C[C@]3(CCC21)CC4=O (single isomer, unassigned)
relative error (processed rat plasma; 400 ng/mL, 24 h, 4 °C, autosampler stability; reference: nominal concentration): 11.1%

CC(NC(=O)OC1OC(C(=O)O)C(O)C(O)C1O)c1cc(Cl)ccc1Cn1c(=S)[nH]c(=O)c2[nH]ccc21 (centres unmarked)
exposure ratio (Sprague-Dawley rat, both sexes, plasma; oral, 125 mg/kg/day; reference: rat over human clinical doses): ≥ 1.4

CC(C)[C@H](NC(=O)CNC(=O)[C@H](CCC(N)=O)NC(=O)[C@H](C)N)C(=O)O
Cmax (male human, plasma; intravenous, 1 mg/kg, single dose): 27 ng/mL
